Measurements from different studies.
Every numbered part comes from another study and shows a few of its results, in no order.

Sample 1
Target: Sal-like protein 4, full length isoform A (SALL4, Homo sapiens, UniProt Q9UJQ4, residues 1-1053)
Chain of UniProt Q9UJQ4 (whole entry, looked up): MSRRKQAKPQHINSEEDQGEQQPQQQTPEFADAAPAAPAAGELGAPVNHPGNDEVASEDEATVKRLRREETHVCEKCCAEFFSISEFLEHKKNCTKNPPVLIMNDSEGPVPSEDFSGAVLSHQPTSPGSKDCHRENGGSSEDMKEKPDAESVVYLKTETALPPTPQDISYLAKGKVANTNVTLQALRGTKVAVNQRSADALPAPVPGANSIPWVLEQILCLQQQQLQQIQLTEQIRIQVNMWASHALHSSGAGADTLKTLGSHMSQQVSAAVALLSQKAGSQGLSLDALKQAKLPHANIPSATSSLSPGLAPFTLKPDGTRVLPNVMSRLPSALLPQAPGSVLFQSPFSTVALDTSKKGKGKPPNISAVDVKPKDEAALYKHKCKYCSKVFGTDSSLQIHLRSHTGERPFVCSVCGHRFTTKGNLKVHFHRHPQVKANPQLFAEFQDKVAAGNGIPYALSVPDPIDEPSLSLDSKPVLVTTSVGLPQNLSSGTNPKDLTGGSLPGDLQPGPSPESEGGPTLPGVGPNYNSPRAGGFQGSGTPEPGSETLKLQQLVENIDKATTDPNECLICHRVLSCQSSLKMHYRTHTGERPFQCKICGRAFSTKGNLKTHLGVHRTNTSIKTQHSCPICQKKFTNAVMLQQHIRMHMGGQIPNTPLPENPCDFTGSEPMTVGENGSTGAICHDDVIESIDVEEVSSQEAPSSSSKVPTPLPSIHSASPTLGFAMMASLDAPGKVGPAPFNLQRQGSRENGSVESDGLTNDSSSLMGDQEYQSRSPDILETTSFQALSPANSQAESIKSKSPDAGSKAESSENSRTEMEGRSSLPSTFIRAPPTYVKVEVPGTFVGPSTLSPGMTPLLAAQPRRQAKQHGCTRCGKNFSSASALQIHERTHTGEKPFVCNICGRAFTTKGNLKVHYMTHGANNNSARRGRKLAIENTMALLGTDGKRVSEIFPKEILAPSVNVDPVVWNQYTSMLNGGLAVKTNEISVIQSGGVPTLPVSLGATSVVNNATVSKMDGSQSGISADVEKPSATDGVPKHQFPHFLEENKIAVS
Method: universal PBM
Form: double-stranded DNA, one strand shown
Sample: in vitro
Concentration: 600 nM
Setting: 8-mer, flanks averaged, mean of replicates
Direction: higher = stronger binding
Oligonucleotide	E-score
CCCGTAAC	-0.0951
ACCAGACG	-0.137
CAGGAGCG	-0.146
CCGGCCGA	-0.314
CAGATCGG	-0.163

Sample 2
Target: Prothrombin, mature alpha-thrombin (F2, Homo sapiens, UniProt P00734)
Method: aptamer microarray, sandwich
Form: DNA with 2'F-ANA
Sample: in vitro
Concentration: 200 nM
Setting: whole 15-mer aptamer, many near background
Added: Cy3 exosite-II aptamer, 400 nM
Direction: higher = stronger binding
Oligonucleotide: GGTTGGTGTGGTTGG
Modification	mean fluorescence intensity
2'F-ANA at 1 5 9 13 15	69.6 a.u.
2'F-ANA at 1 3 4 6 7 8 9 15	204 a.u.
2'F-ANA at 1 5 8 10 11 13 14	46.2 a.u.
2'F-ANA at 2 3 4 5 6	88 a.u.
2'F-ANA at 5 6 7 12 13	111 a.u.
2'F-ANA at 2 5 10 11 12 14	42.5 a.u.

Sample 3
Target: Phosphate system positive regulatory protein PHO4, full length, GST-tagged (PHO4, Saccharomyces cerevisiae, UniProt P07270, residues 1-312)
Method: competition protein-binding microarray
Form: double-stranded DNA, one strand shown
Sample: in vitro
Concentration: 2 µM
Setting: whole 60-bp probe, lowest competitor level
Added: Cbf1 competitor, 0.05 µM
Direction: higher = stronger binding
Constant ends, left off below: … GTCTTGATTCGCTTGACGCTGCTG
Construct (chain): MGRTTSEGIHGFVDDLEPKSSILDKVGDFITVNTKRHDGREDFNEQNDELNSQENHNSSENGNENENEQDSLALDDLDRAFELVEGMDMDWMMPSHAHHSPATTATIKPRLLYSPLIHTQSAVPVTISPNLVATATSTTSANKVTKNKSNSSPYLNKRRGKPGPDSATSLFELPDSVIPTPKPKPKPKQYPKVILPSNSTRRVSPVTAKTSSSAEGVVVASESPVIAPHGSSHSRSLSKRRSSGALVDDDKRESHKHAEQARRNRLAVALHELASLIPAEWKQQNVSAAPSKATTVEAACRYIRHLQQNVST
Oligonucleotide	fluorescence intensity [a.u.]
AGGATCGTTGAGTACAGCGTGGGTAAATTTTTAGCG	8350
GTCTTGTCTCATTGTCTGGTGGGTGTCCCCACTTCA	4730
CTAACGAAGGTTTGCCCAGTGGGTGACAAGCCAAGT	3840
TTGTAGTTGTTGCTGTTGAGGTGGCAGTTGAGAGCT	3930
GTCTTGTCTCATTGGGATGTGGGTGTCCCCACTTCA	5240

Single results of other studies
Substance	target	assay	test system	conditions	scale	measurement	result
PhoQ, residues 284 288 289 292 302 303 SSLVEF	PhoP, residues 12 14 15 18 19 AGCRL (Escherichia coli, UniProt P23836)	Sort-seq, measured: YFP reporter	E. coli	PhoQ-PhoP variant library, added: 10 µM Mg2+	reference: high Mg2+ state, higher = stronger signaling	fold induction	11.7

Excerpt of the above (sample 2):
Modification	mean fluorescence intensity
2'F-ANA at 1 5 8 10 11 13 14	46.2 a.u.
2'F-ANA at 1 5 9 13 15	69.6 a.u.
